Published values from different studies.
Numbered parts are unrelated; each lists some results of a single study. “And” joins repeats or separate records; there may be more than shown.
UniProt Q9Y6M4, sequence (whole entry, looked up): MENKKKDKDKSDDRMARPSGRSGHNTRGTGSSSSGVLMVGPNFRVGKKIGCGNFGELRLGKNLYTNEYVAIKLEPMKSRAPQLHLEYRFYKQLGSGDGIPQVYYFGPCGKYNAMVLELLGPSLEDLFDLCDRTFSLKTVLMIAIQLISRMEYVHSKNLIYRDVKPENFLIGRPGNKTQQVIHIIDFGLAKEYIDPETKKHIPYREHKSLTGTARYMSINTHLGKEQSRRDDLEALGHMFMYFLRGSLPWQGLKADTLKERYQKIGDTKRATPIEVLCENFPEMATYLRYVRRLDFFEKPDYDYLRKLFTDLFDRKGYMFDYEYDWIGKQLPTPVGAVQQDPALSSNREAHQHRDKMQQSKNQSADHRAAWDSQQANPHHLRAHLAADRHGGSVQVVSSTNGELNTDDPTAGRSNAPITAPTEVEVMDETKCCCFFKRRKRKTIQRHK
UniProt Q8IWQ3, sequence (whole entry, looked up): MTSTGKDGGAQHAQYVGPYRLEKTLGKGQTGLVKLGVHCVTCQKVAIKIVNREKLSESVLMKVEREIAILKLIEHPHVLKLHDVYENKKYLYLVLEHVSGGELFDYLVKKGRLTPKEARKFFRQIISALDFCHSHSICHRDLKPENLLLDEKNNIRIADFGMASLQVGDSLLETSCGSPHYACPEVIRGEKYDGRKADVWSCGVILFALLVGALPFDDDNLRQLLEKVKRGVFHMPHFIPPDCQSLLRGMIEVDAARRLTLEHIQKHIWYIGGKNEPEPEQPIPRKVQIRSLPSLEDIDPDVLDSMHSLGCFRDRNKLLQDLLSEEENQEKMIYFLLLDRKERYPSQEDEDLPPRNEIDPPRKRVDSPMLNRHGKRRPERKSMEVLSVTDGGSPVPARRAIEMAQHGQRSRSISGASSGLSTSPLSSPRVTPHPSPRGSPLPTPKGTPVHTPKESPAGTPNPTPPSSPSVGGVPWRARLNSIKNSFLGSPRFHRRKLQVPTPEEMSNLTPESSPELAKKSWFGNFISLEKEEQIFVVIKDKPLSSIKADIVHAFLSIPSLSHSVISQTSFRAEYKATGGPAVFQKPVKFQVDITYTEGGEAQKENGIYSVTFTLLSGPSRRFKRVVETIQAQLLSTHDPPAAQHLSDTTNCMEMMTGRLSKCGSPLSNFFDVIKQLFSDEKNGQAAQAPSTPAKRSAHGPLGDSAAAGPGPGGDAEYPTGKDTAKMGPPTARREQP
UniProt Q07002, sequence (whole entry, looked up): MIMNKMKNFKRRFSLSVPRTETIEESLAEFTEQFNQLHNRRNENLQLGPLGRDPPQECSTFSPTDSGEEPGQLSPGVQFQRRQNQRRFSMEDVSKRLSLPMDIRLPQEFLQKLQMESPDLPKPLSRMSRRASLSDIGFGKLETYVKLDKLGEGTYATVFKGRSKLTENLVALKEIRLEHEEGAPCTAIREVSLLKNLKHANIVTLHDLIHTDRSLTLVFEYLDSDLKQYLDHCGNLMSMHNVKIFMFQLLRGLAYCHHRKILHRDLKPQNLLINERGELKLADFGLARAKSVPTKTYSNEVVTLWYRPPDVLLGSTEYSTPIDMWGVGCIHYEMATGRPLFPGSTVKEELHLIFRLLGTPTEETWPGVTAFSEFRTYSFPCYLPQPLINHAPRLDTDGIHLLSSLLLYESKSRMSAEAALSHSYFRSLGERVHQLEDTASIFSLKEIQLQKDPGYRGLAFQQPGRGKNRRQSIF
UniProt O60331, sequence (whole entry, looked up): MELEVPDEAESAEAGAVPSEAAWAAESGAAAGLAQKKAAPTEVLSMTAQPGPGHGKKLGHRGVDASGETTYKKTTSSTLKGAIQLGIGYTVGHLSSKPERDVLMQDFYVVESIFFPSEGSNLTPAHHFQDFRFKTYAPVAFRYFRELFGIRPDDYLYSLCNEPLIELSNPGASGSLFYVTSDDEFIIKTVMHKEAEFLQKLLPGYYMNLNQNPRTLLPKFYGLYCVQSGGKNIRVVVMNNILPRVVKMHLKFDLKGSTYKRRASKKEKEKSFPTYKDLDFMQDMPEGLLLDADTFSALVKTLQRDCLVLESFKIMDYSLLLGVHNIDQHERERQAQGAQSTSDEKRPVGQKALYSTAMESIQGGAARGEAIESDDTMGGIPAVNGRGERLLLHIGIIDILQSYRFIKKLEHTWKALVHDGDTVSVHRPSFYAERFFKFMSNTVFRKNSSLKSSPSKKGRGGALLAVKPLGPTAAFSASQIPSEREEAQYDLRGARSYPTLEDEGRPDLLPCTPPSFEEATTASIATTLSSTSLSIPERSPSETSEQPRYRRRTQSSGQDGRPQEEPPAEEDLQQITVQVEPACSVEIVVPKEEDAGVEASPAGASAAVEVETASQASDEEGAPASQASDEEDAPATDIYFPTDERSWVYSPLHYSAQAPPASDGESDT
UniProt Q9BX84, sequence (whole entry, looked up): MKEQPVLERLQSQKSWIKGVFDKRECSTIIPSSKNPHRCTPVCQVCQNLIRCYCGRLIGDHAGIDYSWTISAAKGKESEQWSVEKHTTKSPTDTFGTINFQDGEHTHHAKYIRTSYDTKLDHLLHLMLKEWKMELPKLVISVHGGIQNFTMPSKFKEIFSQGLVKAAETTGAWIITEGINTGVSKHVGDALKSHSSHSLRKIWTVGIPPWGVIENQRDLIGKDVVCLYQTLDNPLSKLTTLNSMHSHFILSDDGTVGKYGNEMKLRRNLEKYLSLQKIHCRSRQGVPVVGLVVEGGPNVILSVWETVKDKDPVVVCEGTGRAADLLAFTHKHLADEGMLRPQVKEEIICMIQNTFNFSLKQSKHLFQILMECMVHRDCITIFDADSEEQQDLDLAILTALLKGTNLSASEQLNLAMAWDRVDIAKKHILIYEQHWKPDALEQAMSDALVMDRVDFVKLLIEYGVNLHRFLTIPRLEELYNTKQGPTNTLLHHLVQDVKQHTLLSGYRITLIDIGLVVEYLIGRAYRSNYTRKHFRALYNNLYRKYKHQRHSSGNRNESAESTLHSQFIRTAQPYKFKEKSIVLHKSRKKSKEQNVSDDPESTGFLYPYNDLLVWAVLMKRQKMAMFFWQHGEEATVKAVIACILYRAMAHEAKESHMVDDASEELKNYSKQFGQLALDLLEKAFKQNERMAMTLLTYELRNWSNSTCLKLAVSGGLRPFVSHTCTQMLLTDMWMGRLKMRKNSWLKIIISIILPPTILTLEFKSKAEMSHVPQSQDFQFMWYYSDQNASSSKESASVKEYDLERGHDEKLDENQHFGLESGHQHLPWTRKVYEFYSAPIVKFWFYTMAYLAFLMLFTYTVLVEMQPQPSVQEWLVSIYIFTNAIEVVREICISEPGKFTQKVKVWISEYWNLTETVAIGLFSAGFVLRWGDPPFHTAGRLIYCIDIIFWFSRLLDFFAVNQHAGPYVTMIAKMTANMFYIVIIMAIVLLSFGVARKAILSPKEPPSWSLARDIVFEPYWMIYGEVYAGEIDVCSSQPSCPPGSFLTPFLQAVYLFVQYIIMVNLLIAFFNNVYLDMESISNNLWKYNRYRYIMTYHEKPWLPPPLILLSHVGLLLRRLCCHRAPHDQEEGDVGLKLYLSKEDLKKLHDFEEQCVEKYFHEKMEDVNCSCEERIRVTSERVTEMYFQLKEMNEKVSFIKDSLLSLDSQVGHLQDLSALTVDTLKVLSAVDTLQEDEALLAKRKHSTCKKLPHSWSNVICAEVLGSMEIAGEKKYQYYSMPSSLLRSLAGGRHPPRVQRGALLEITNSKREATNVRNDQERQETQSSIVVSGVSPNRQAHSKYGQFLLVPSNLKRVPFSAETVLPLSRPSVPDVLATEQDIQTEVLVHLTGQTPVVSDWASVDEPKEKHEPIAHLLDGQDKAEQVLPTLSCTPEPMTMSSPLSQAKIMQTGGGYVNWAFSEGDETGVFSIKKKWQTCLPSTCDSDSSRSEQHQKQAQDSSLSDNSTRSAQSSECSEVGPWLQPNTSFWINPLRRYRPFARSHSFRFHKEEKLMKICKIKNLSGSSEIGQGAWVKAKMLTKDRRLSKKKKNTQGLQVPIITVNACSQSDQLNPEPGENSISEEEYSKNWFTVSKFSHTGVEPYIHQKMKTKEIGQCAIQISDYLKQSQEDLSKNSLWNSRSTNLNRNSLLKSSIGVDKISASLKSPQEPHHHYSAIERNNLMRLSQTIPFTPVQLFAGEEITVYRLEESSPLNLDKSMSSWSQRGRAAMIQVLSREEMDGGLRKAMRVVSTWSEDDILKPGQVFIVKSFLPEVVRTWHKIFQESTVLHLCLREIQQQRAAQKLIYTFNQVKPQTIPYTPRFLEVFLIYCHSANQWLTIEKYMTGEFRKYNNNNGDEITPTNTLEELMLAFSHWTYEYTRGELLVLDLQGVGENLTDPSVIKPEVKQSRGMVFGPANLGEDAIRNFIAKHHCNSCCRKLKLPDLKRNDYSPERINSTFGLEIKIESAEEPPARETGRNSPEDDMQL

Series 1
Structure (SMILES): COc1cc(C(=O)N2CCC(N3CCN(C)CC3)CC2)ccc1Nc1ncc2c(n1)N(C)c1ccccc1C(=O)N2C
tested on | assay | test system | conditions | inhibition
human PBMC | probe labeling, inhibitor, KiNativ profiling, measured: DVkPSNVLINK | cell lysate | 1 µM, LYS2 site, with: ATP acyl-phosphate probe | -13.1%
mouse MAP3K5/MAP3K6/MAP3K7 | probe labelling, KiNativ ADP probe | mouse brain lysate | 0.1 µM, LYS1 site IAIkEIPER | 7.8%
TRKB (mouse) | probe labelling, inhibitor, KiNativ ActivX ADP probe | mouse brain lysate | 0.1 µM, Lys1 site peptide | -0.2%
PFTAIRE1 human | KiNativ profiling | human PBMC lysate | concentration not given, ADP probe, Lys1 site | -7%
MAPKAPK2 (human) | probe labelling, KiNativ ADP probe | human PBMC lysate | concentration not given, LYS1 labelled site | 4.6%

Series 2 — method: phase 2a trial; species: idiopathic pulmonary fibrosis patients
SMILES: CC(C)n1cnc(-c2ccc(F)cc2)c1-c1ncc(C(=O)Nc2ccc(N3CCN(C)CC3)cc2)[nH]1
conditions | patients with hypophosphataemia [%]
30 mg once daily, grade 4 emergent event | 0
all arms pooled, grade 4 emergent event | 0
30 mg once daily, grade 1 emergent event | 0
60 mg once daily, grade 5 emergent event | 0
30 mg once daily, grade 5 emergent event | 0

Series 3 — concentration: 50 µM
Target: Bromodomain-containing protein 4, BD1 (BRD4, Homo sapiens, UniProt O60885)
SMILES | inhibition
NC1(C(=O)N[C@@H](CCO)c2ccc(Cl)cc2)CCN(c2ncnc3[nH]ccc23)CC1 | 7.55%
COc1ncc(-c2ccc3nccc(-c4ccnnc4)c3c2)cc1NS(=O)(=O)c1ccc(F)cc1F | 13.6%
CNC(=O)c1ccccc1Sc1ccc2c(/C=C/c3ccccn3)n[nH]c2c1 | -6.78%
CCS(=O)(=O)c1cccc(-c2cc(C(=O)NC3CCN(C)CC3)c(C)c3[nH]c4ncc(C)cc4c23)c1 | 17.8%
O=C(Nc1ccc2[nH]nc(-c3ccncc3)c2c1)[C@@H]1CCN(CC(=O)N2CCN(c3ccc(-c4ncccn4)cc3)CC2)C1 | 85.5%
COc1cc2ncnc(Nc3ccc(F)c(Cl)c3)c2cc1OCCCN1CCOCC1 | 16.4%
N#C/C(=C(/N)SC1C=CC=CC1)c1cccc(C(O)c2ccncc2)c1 (stereo not drawn) | 18.6%
O=S(=O)(c1cccc2cnccc12)N1CCCNCC1 | -5.85% and -0.55%
CN1CCC(COc2cnc(-c3cccc(Cn4nc(-c5cccc(C#N)c5)ccc4=O)c3)nc2)CC1 | 21.6%

Series 4 — effect on: enzyme activity; action: inhibitor; concentration: 10 µM
Target: Calcium/calmodulin-dependent protein kinase type II subunit alpha (CAMK2A, Homo sapiens, UniProt Q9UQM7)
UniProt Q9UQM7, sequence (whole entry, looked up): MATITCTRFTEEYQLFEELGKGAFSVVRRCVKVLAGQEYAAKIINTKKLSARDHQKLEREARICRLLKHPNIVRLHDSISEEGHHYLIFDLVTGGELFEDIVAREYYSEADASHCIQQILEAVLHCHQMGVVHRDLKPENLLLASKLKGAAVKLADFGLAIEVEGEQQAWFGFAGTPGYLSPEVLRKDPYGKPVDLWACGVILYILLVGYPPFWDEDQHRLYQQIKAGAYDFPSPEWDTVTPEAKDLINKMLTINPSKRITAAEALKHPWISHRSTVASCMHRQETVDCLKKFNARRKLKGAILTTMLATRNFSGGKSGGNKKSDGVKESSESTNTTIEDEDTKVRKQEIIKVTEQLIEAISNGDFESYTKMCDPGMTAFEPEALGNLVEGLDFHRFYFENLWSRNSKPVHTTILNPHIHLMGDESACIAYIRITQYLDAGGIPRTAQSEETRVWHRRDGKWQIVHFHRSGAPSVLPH
SMILES | inhibition [%]
COC(=O)C1=C(C)NC(C)=C(C(=O)OCCN(C)Cc2ccccc2)C1c1cccc([N+](=O)[O-])c1 (stereo not drawn) | 0
CC(=O)N[C@@H](CC(=O)N[C@@H](CCC(=O)O)C(=O)O)C(=O)O | 6
O=C(/C=C/c1ccc(O)c(O)c1)O[C@@H]1C[C@](O)(C(=O)O)C[C@@H](OC(=O)/C=C/c2ccc(O)c(O)c2)[C@H]1O | -38
N=C(N)NC(=N)N1CCOCC1 | 4
COc1cc(OC)cc(C(=O)O)c1 | -5
O=C(O)CNC(=O)c1c(O)cc(CCc2ccccc2)n2ncnc12 | -3
C=C(C)[C@@H]1CC[C@]2(C(=O)O)CC[C@]3(C)[C@H](CC[C@@H]4[C@@]5(C)CC[C@H](O)[C@@](C)(CO)[C@@H]5CC[C@]43C)[C@@H]12 | -15

Series 5 — method: competition with immobilised ligand; concentration: 1 µM
SMILES: Cc1nc(Cc2cccc(C(F)(F)F)c2)sc1-c1ccc(C(N)=O)nc1
target | assay | remaining binding [%]
Phosphatidylinositol 3-kinase C2 domain-containing subunit gamma (PIK3C2G, Homo sapiens, UniProt O75747) | cell-free assay | 93
NT-3 growth factor receptor (NTRK3, Homo sapiens, UniProt Q16288) | cell-free assay | 69
NUAK family SNF1-like kinase 1 (NUAK1, Homo sapiens, UniProt O60285) | cell-free assay | 86
Serine/threonine-protein kinase Nek2 (NEK2, Homo sapiens, UniProt P51955) | cell-free assay | 100
Serine/threonine-protein kinase BRSK2 (BRSK2, Homo sapiens, UniProt Q8IWQ3) | cell-free assay | 72
Activin receptor type-1-like (ACVRL1, Homo sapiens, UniProt P37023) | binding | 99
Cyclin-dependent kinase 18 (CDK18, Homo sapiens, UniProt Q07002) | cell-free assay | 100
Phosphatidylinositol 4-phosphate 5-kinase type-1 gamma (PIP5K1C, Homo sapiens, UniProt O60331) | cell-free assay | 84
Serine/threonine-protein kinase 17A (STK17A, Homo sapiens, UniProt Q9UEE5) | cell-free assay | 82
Transient receptor potential cation channel subfamily M member 6 (TRPM6, Homo sapiens, UniProt Q9BX84) | cell-free assay | 88
Casein kinase I isoform gamma-3 (CSNK1G3, Homo sapiens, UniProt Q9Y6M4) | cell-free assay | 93
Calcium/calmodulin-dependent protein kinase type 1G (CAMK1G, Homo sapiens, UniProt Q96NX5) | cell-free assay | 99
Serine/threonine-protein kinase ULK2 (ULK2, Homo sapiens, UniProt Q8IYT8) | cell-free assay | 100
Mitogen-activated protein kinase kinase kinase 12 (MAP3K12, Homo sapiens, UniProt Q12852) | cell-free assay | 100
Rhodopsin kinase GRK1 (GRK1, Homo sapiens, UniProt Q15835) | cell-free assay | 98
Phosphatidylinositol 4,5-bisphosphate 3-kinase catalytic subunit alpha isoform (PIK3CA, Homo sapiens, UniProt P42336, I800L) | cell-free assay | 56
Eukaryotic translation initiation factor 2-alpha kinase 1 (EIF2AK1, Homo sapiens, UniProt Q9BQI3) | cell-free assay | 100
Tyrosine-protein kinase ZAP-70 (ZAP70, Homo sapiens, UniProt P43403) | cell-free assay | 93
Mitogen-activated protein kinase 8 (MAPK8, Homo sapiens, UniProt P45983) | cell-free assay | 90
Receptor-type tyrosine-protein kinase FLT3 (FLT3, Homo sapiens, UniProt P36888, F691L/ITD) | cell-free assay | 100
Myosin light chain kinase (MYLK3, Homo sapiens, UniProt Q32MK0) | cell-free assay | 81
eIF-2-alpha kinase GCN2, C-terminal kinase domain (EIF2AK4, Homo sapiens, UniProt Q9P2K8, S808G) | cell-free assay | 100
Insulin receptor (INSR, Homo sapiens, UniProt P06213) | cell-free assay | 95
Tyrosine-protein kinase Fgr (FGR, Homo sapiens, UniProt P09769) | cell-free assay | 100
Protein kinase C theta type (PRKCQ, Homo sapiens, UniProt Q04759) | cell-free assay | 94

Some of these lines once more (series 5):
target | assay | remaining binding [%]
Calcium/calmodulin-dependent protein kinase type 1G (CAMK1G, Homo sapiens, UniProt Q96NX5) | cell-free assay | 99
Transient receptor potential cation channel subfamily M member 6 (TRPM6, Homo sapiens, UniProt Q9BX84) | cell-free assay | 88
Rhodopsin kinase GRK1 (GRK1, Homo sapiens, UniProt Q15835) | cell-free assay | 98
Eukaryotic translation initiation factor 2-alpha kinase 1 (EIF2AK1, Homo sapiens, UniProt Q9BQI3) | cell-free assay | 100
Cyclin-dependent kinase 18 (CDK18, Homo sapiens, UniProt Q07002) | cell-free assay | 100
eIF-2-alpha kinase GCN2, C-terminal kinase domain (EIF2AK4, Homo sapiens, UniProt Q9P2K8, S808G) | cell-free assay | 100
